Measured values collected from several papers.
Numbers after ± are the reported error.

Structure (SMILES)	cell line	assay	test system	setting	how to read	quantity	value
COC(=O)C1=CO[C@@H](C)[C@@H]2Cn3ccc4c5ccccc5nc-4c3C[C@H]12	neonatal foreskin fibroblasts	–	–	200 µM	–	growth inhibition	< 50%
Cc1nn(C)c2nnc(-c3ccccc3)c(Cl)c12	D6	RT-qPCR, item: CLRN1 N48K mRNA	–	16.8 µM, 24 h, added: bortezomib 50 nM	–	mRNA level	no effect
COc1cc(CNC(=O)C[C@H](C)CCC=C(C)C)ccc1OCc1cn(-c2ccc(Cl)c(Cl)c2)nn1	BT-549 breast cancer cells	SRB	–	10 µM, 48 h	–	growth percent	71.7%
CC[C@H](C)[C@H](NC(=O)[C@H](CC(C)C)NC(=O)[C@@H](N)CS)C(=O)N[C@@H](CCC(=O)O)C(=O)N[C@@H](Cc1ccc(O)cc1)C(=O)NCC(=O)NCC(=O)N[C@@H](C)C(=O)N[C@@H](CC(=O)O)C(=O)N[C@@H](Cc1ccc(O)cc1)C(=O)N[C@@H](CCCCN)C(=O)N[C@H](C(=O)N[C@H](C(=O)N[C@@H](CC(N)=O)C(=O)N[C@@H](CC(C)C)C(=O)N[C@@H](CCCCN)C(=O)O)[C@@H](C)CC)[C@@H](C)O	DT40	western blot	infectious bursal disease virus	50 to 100 nM, 12 h	relative to: infected untreated	VP2, Bax, caspase-3, caspase-9 levels	decreased
COc1cc(CNC(=O)C[C@H](C)CCC=C(C)C)ccc1O	BT-549 breast cancer cells	SRB	–	10 µM, 48 h	–	growth percent	95.5%
CC(C)(C)ONc1nc(Nc2ccnc(C(F)(F)F)c2)nc(-c2cccc(C(F)(F)F)n2)n1	U-87 MG IDH2 R172K	2-HG production	–	0.2 µM, 72 h	–	inhibition	74.7%
O=Cc1c(O)ccc2ccccc12	HUVEC	RNA sequencing, item: GIMAP8	–	75 µM, 24 h	relative to: DMSO	log2 fold change	-4.05
CCCC(CCC)C(=O)[O][Pt]([NH2])([NH2])([Cl])([Cl])[O]C(=O)C(Cl)Cl	LoVo oxaliplatin-resistant	MTT	–	–	relative to: LoVo OXP over LoVo	resistance factor	< 2
O=C(c1ccc(Oc2ccc(C3CCCCC3)cc2)c([N+](=O)[O-])c1)C(Cl)Cl	NCI-H1299	cell growth or viability, MTT	–	2.5 µM	–	inhibition	> 95%
Nc1cccc(S(=O)(=O)N2CCCN(S(=O)(=O)c3ccc4c(c3)OCCO4)CC2)c1	H1299	14C-glucose	–	30 µM, 2 h	–	glucose carbon into lipids	decreased
COc1cc(CNC(=O)C[C@H](C)CCC=C(C)C)ccc1OCc1cn(-c2ccccc2[N+](=O)[O-])nn1	M14 melanoma cells	SRB	–	10 µM, 48 h	–	growth percent	65.9%
CCCCCC(=O)N[C@H]1CSCc2cc(CSCCNC(=O)CCCCCNC(=O)CC[C@H](NC(=O)CCC(C(=O)O)N3CCN(CC(=O)O)CCN(CC(=O)O)CCN(CC(=O)O)CC3)C(=O)NCCCOc3ccc4nccc(C(=O)NCC(=O)N5CC(F)(F)C[C@H]5C#N)c4c3)cc(c2)CSC[C@@H](C(=O)O)NC(=O)[C@H](Cc2ccccc2)NC(=O)[C@H](CCC(N)=O)NC(=O)[C@H]([C@@H](C)O)NC(=O)[C@@H]2CCCN2C(=O)[C@@H]2CCCN2C1=O (stereo partly drawn)	HT1080 expressing human FAP	–	–	added: UAMC1110	–	cellular uptake	inhibited
COc1cc(CNC(=O)C[C@H](C)CCC=C(C)C)ccc1OCc1cn(-c2cccc(Cl)c2)nn1	M14 melanoma cells	SRB	–	10 µM, 48 h	–	growth percent	93.4%
O=C1OCC2=C1C(c1cccc(Br)c1)C1=C(N2)C(=O)c2ccccc2C1=O (stereo not drawn)	SK-LU-1 cells	PI flow cytometry	–	0.08 µM, 24 h	–	cells in G2/M phase	11.9%
COCC/N=C(\S)N/N=C(\C)c1ccccc1O	LDR	silenced GFP reporter derepression, microscopy	–	overnight	relative to: sodium butyrate	Emax	98%
COc1cc(CNC(=O)C[C@H](C)CCC=C(C)C)ccc1OCc1cn(-c2cccc(C(F)(F)F)c2)nn1	SNB-19 CNS cancer cells	SRB	–	10 µM, 48 h	–	growth percent	97.2%
C=C(CC)C(=O)c1ccc(OCC(=O)NCCCCNC(=O)COc2ccc(C(=O)C(=C)CC)c(Cl)c2Cl)c(Cl)c1Cl	CoC1	cell growth, CCK-8	–	72 h	–	IC10	~200 nM
CC(=C(c1ccc(Cl)cc1)c1ccc(OCCN2CCCCC2)cc1)c1ccc(Cl)cc1	60 NCI tumour cell lines	NCI one-dose screen	–	10 µM	–	mean growth inhibition	no inhibition
CO[C@H]1N(OC)c2ccccc2[C@@]12CN=C(Nc1cc(C(F)(F)F)cc(C(F)(F)F)c1)S2 (relative stereo)	HCT-116	PI flow cytometry	–	40 µM, 24 h	–	G0/G1 phase cells	62.97 ± 0.37%
COc1ccc([C@@H]2CC(=O)c3c(O)cc(O[C@@H]4O[C@H](CO[C@@H]5O[C@@H](C)[C@H](O)[C@@H](O)[C@H]5O)[C@@H](O[C@H]5O[C@H](CO)[C@@H](O)[C@H](O)[C@H]5O)[C@H](O)[C@H]4O)cc3O2)cc1O	A549	cell migration, scratch	–	150 µg/mL, 24 h	–	gap closure	3.29 ± 0.12%
C#CCOc1ccc(C(=O)c2ccc(NC(=O)C(=O)NCCc3ccc(OC)cc3)cc2)cc1	H1155 expressing CYP4F11	–	–	concentration not given, ectopic CYP4F11 expression	–	cytotoxicity	toxic

Structure (SMILES)	cell line	assay	test system	setting	how to read	quantity	value
COc1ccc([C@@H]2CC(=O)c3c(O)cc(O[C@@H]4O[C@H](CO[C@@H]5O[C@@H](C)[C@H](O)[C@@H](O)[C@H]5O)[C@@H](O)[C@H](O)[C@H]4O)cc3O2)cc1O	A549	cell growth or viability, MTS	–	150 µg/mL, 72 h	–	viability	37.6%
CCCCCCCCC1(CCCCCCCC)c2cc(-c3cc4[n+]5c(c3)-c3cccc[n+]3[Ir-3]536([c]5ccccc5-c5cc(-c7ccccc7)cc([n+]53)-c3cccc[c]36)[n+]3ccccc3-4)ccc2-c2ccc(-c3cc4[n+]5c(c3)-c3cccc[n+]3[Ir-3]536([c]5ccccc5-c5cc(-c7ccccc7)cc([n+]53)-c3cccc[c]36)[n+]3ccccc3-4)cc21.F[P-](F)(F)(F)(F)F.F[P-](F)(F)(F)(F)F	SK-MEL-28	–	–	visible light 100 J/cm2	relative to: dark EC50 over visible-light EC50	phototherapeutic index	66
CCOC(=O)c1nc2cc(Cl)c(Cl)cc2nc1N1CCN(C(=O)Nc2ccc(N3CCNCC3)cc2)CC1	KEAP1-mutant cancer cell lines	–	–	concentration not given	–	NRF2 accumulation	no effect
CC(C)=CCC1=C([O-])C(=O)c2ccccc2C1=O.CC(C)=CCC1=C([O-])C(=O)c2ccccc2C1=O.[Cu+2].c1ccc(-c2ccnc3c2ccc2c(-c4ccccc4)ccnc23)cc1	MRC5 and A2780	MTT	–	24 h	relative to: IC50 MRC5 over IC50 A2780	selectivity index	6
COc1cc(CNC(=O)C[C@H](C)CCC=C(C)C)ccc1OCc1cn(-c2ccc([N+](=O)[O-])cc2)nn1	OVCAR-5 ovarian cancer cells	SRB	–	10 µM, 48 h	–	growth percent	102%
O=C(O)c1ccc(/C=C2\SC(=S)N(Cc3cccc(C(F)(F)F)c3)C2=O)cc1	mouse BMDM	–	–	10 µM, added: LPS	–	NLRP3 ubiquitination	no effect
COc1cc(CNC(=O)C[C@H](C)CCC=C(C)C)ccc1OCc1cn(-c2ccc(Br)cc2)nn1	M14 melanoma cells	SRB	–	10 µM, 48 h	–	growth percent	97.2%
COC(=O)C(C)NC(=O)/C=C/C=C/c1ccc2c(c1)OCO2 (stereo not drawn)	HL-7702 (L-02) hepatocytes	RT-qPCR, item: PPARγ	–	100 µM	relative to: untreated	mRNA level	11.8 fold
CCCCCCCCCn1cc(C(N)(CO)CO)nn1	Alzheimer's disease patient iPSC-derived neurons	–	–	10 µM	–	ceramide level	decreased
COc1ccc(CC2COC(=O)C2Cc2ccc3c(c2)OCO3)cc1OC (mixture of isomers)	A2780	annexin V/7-AAD	–	8.75 µM, 72 h	relative to: untreated	live cells	decreased
Fc1cccc(CNc2nc(NCc3ccccc3)c3ccccc3n2)c1	SW-403	cell growth or viability	–	72 h	–	GI50	2600 nM
CC(=O)N[C@@H](CC(C)C)C(=O)N[C@@H](CCC(=O)O)C(=O)N[C@@H](CO)C(=O)N[C@@H](CC(=O)O)C(=O)CCl	THP-1 macrophages	apoptosis, immunoblot	–	12.5 to 100 µM, added: staurosporine	–	PARP cleavage	no effect
Cc1noc(NS(=O)(=O)c2ccc(NC(=O)c3cc(-c4ccc5ccccc5c4)nc4ccccc34)cc2)c1C	mouse spleen cells	cell proliferation, inhibitor	–	dose not given, added: concanavalin A	–	effective concentration	~10 µM
CCCCN1C(=O)c2cccc3c(NCCCCCCN4CCOCC4)ccc(c23)C1=O	BHK-21	FRAP	–	–	–	diffusion coefficient	0.0027
O=C1c2cccc3cccc(c23)C12NC(Cc1ccc(O)cc1)C([N+](=O)[O-])C2c1ccccc1 (stereo not drawn)	Jurkat	annexin V-FITC/PI flow cytometry	–	IC50, 24 h	–	late apoptotic cells	27%
C(=N\Nc1nc(-c2ccccn2)nc2ccccc12)/c1ccccc1	LDR	silenced GFP reporter derepression, microscopy	–	overnight	relative to: sodium butyrate	Emax	97%
CC(C)c1cccc(C(C)C)c1N1CCN(c2c(C(C)C)cccc2C(C)C)C1=[Se].[Cl][Au]	LoVo-OXP colon cancer cells	MTT	–	–	relative to: LoVo-OXP over LoVo IC50	resistance factor	0.8
CC1=CCC23OC2(C)CCC2C(CN(C)C)C(=O)OC2C13.Cl (stereo not drawn)	C6 rat glioma cells	–	–	0.2 mg/mL, clonogenic	relative to: control	proliferation	10.3 ± 2.64%
C[N+]1(CC(=O)OC2CCCCCCCCCCC2)CCCCC1	LNCaP	cell viability, CellTiter Blue	–	96 h	–	ED90	20400 nM
Cc1[nH]nc2c1N=C(c1ccccc1Cl)c1cnc(N3CCOCC3)cc1N2	4T1 and human TNBC cells	RT-qPCR, item: CXCL10 and CXCL11	–	concentration not given, 24 h	–	mRNA level	increased
C[C@@H](O)[C@H](NC(=O)[C@@H]1CSSC[C@H](NC(=O)[C@@H](Cc2ccccc2)NC(=O)CCOCCOCCOCCOCCOCCOCCOCCOCCNC(=S)Nc2ccc(C[C@H]3CN(CC(=O)O)CCN(CC(=O)O)CCN3CC(=O)O)cc2)C(=O)N[C@@H](Cc2ccc(O)cc2)C(=O)N[C@H](Cc2c[nH]c3ccccc23)C(=O)N[C@@H](CCCCN)C(=O)N[C@@H]([C@@H](C)O)C(=O)N1)C(=O)O [copper-64 labelled]	HCT116 expressing SSTR2	–	–	4 h, 64Cu-labelled	–	internalization	3460 ± 130 fmol/mg
